Published values gathered from unrelated publications.
Each line is one published result; not all experiments were run side by side. ± gives the spread as reported.

O=C(NCCOCCOCCOCCNC(=O)c1cc2ccccc2c2ccccc12)c1cc(C(=O)N2CCNCCNCCNCC2)c(O)c(C(=O)N2CCNCCNCCNCC2)c1
IC50 (WI-38; cell growth or viability, MTT; 24 h): > 1000 µM

COc1cc(-n2cc3cc(F)cc(C(N)=O)c3n2)cc(Cl)c1C1CC(O)(CCO)CC2CCCC21 (stereo not shown)
IC50 (Caco-2; cell growth or viability, MTT; 72 h): 0.33 µM

O=C(OC[C@H]1O[C@@H](Oc2ccc(CO)cc2)[C@H](O)[C@@H](O)[C@@H]1O)c1ccc(O)cc1
IC50 (MDA-MB-231 breast cancer; cell viability, MTT; DMEM with 10% FBS; 48 h): > 200 µM

CN1CC[C@@H](COc2cnc(C#N)cc2-c2ccn3nc(NC(=O)C4CC4)cc3c2)C1
IC50 (dendritic cells, mouse, bone marrow-derived; cytokine release, measured: TNF; together with: LPS): 0.78 µM

Cc1ccnc(-c2cc(C(=O)O)ccn2)c1.F[P-](F)(F)(F)(F)F.F[P-](F)(F)(F)(F)F.[Ru+2].c1ccc(-c2ccccn2)nc1.c1ccc(-c2ccccn2)nc1
IC50 (MCF-10A; cell viability; 48 h, dark): > 100 µM

CN(C)C(=S)NN=C(c1ccccn1)c1ccccn1
IC50 (MCF-10A; cell growth or viability, MTT; 48 h): 25.1 µM

COc1cc(-c2cc(C(C)=O)n3ccccc23)c(OC)cc1Cn1ccnc1
IC50 (EOL1; cell growth or viability, ATP luminescence): 0.061 µM

CC#CC#C/C=C1/O[C@@]2(CCCCO2)[C@@H](OC(C)=O)[C@@H]1O
IC50 (RAW264.7; NO release, inhibitor, Griess; LPS-stimulated): > 50 µM

Cn1ncc(-c2ccc3c(=O)[nH]nc(CN)c3c2)c1-c1c(F)c(Cl)cc(OC2CC2)c1C#N
IC50 (HuP-T4; cell viability, inhibitor, CellTiter-Glo; 120 h, baseline-subtracted): 0.02 µM

CC[C@H](C)[C@H](NC(=O)[C@H](CC(=O)O)NC(=O)[C@H](Cc1ccccc1)NC(=O)[C@H]1CCC[C@@H]1NC(=O)CN)C(=O)N[C@H](CC(=O)N[C@@H](CCCCN)C(=O)N[C@@H](CCCCN)C(=O)N[C@H]1CCC[C@@H]1C(=O)N[C@@H](C)C(=O)N[C@@H](CCC(=O)O)C(=O)N[C@@H](CO)C(=O)N[C@H](CC(N)=O)Cc1ccccc1)[C@@H](C)CC
IC50 (NIH 3T3; cytotoxicity): 106 µg/mL

CC(C)c1ccc(N(C)c2ccc3c(c2)OCC[C@H]3CNc2cnccc2C(=O)O)cc1
IC50 (Huh-7; cell growth or viability, ATP luminescence; 7 days): 0.014 µM

CC[C@H](C)[C@H](NC(=O)[C@H](CCCCN)NC(=O)[C@H]1CCC[C@@H]1NC(=O)[C@H](CC(C)C)NC(=O)CN)C(=O)N[C@@H](C)CC(=O)N[C@@H](CCCCN)C(=O)N[C@@H](CCCCN)C(=O)N[C@H]1CCC[C@@H]1C(=O)N[C@H](C(=O)N[C@@H](CCCCN)C(=O)N[C@@H](C)CC(=O)N[C@@H](Cc1ccccc1)C(N)=O)[C@@H](C)CC
IC50 (NIH 3T3; cytotoxicity): 516 µg/mL

NC(=O)c1ccc(-c2ccccc2Cl)c2c3c([nH]c12)CC[C@H](N)C3
IC50 (B16F10; cell proliferation; 96 h): 0.026 µM

CC[C@H](C)[C@H](NC(=O)[C@H](CCCCN)NC(=O)[C@H]1CCC[C@@H]1NC(=O)[C@H](CC(C)C)NC(=O)CN)C(=O)N[C@H](CC(=O)N[C@@H](CCCCN)C(=O)N[C@@H](CCCCN)C(=O)N[C@H]1CCC[C@@H]1C(=O)N[C@@H](C)C(=O)N[C@@H](CCCCN)C(=O)N[C@@H](CO)CC(=O)N[C@@H](Cc1ccccc1)C(N)=O)[C@@H](C)CC
IC50 (NIH 3T3; cytotoxicity): 119 µg/mL

COc1cc2ncnc(Nc3ccc(F)c(Cl)c3)c2cc1NC(=O)/C=C/CN1CCCCC1
IC50 (Ba/F3 EGFR; cell growth or viability; 72 h): 0.034 µM

COC(=O)N1c2ccc3c(nc(Cc4ccccc4)n3[C@@H]3CCC[C@@H](C(=O)O)C3)c2CC[C@@H]1C
IC50 (CAMA-1; cell growth or viability, ATP luminescence; 10 days): 0.59 µM

C=CC(=O)N1CCC([C@@H]2CCNc3c(C(N)=O)c(-c4ccc(Oc5ccccc5)cc4)nn32)CC1
IC50 (Ramos; IP1 production, HTRF; 4 h, together with: anti-IgM): 0.00415 µM

CC(C)C(=O)Cc1c(OCC(O)C(C)(C)O)ccc2ccc(=O)oc12 (stereo not shown)
IC50 (COLO 205; cell growth or viability, MTT; 24 h): > 100 µM

CCCON(Cc1ccc(C(=O)NO)cc1)C(=O)Nc1cc(C)cc(C)c1
IC50 (MOLM-13; cell viability; 72 h): 0.108 ± 0.014 µM

CNS(=O)(=O)Nc1nccc(Cc2c(C)c3ccc(Oc4ncccc4F)cc3oc2=O)c1F
IC50 (COLO 201; cell viability; 7 days): 0.00408 µM

C#CC[C@]1(O)C[C@H](C)N2CCc3cc(OCc4cc(C)cc(C)c4)c(OCc4cc(C)cc(C)c4)cc3[C@@H]2C1
IC50 (ASPC1; cell growth or viability, MTT): 0.618 µM

NCCCn1cc(COc2cc(C(=O)Nc3cc(OCCN)c4ccccc4n3)nc(C(=O)Nc3cc(OCCN)c4ccccc4n3)c2)nn1
IC50 (WI-38; cell growth or viability, ATP luminescence; 72 h): > 40 µM

C=CC(=O)N1CCCC(n2c(=O)c3ncccc3n(Cc3ccc(Oc4ccccc4)cc3)c2=O)C1 (stereo not shown)
IC50 (Farage; cell growth or viability, MTT; 72 h): 2 µM

COc1ccc(C([O-])=CC(=O)c2ccc(C(C)(C)C)cc2)cc1.[Cl-].[Ru+2].c1ccc(-c2cccc(-c3ccccn3)n2)nc1
IC50 (HL-60; phototoxicity; light over 450 nm, 29.1 J/cm2): 0.45 µM

CCOc1cncc(-c2ccc(NC(=O)C3(c4ccnc(NS(=O)(=O)C5CC5)n4)CCOCC3)nc2)n1
IC50 (SU-DHL-1; cell growth or viability, ATP luminescence; 72 h): 0.042 µM
